Experimental data collected from several papers.
Each line is one published result; not all experiments were run side by side. Values joined by “and” are separate records of one study, mostly repeats; a detail may differ. ± gives the spread as reported.
CDK13: Cyclin-dependent kinase 13 (CDK13, Homo sapiens, UniProt Q14004)
UniProt D0VWV4, sequence (whole entry, looked up): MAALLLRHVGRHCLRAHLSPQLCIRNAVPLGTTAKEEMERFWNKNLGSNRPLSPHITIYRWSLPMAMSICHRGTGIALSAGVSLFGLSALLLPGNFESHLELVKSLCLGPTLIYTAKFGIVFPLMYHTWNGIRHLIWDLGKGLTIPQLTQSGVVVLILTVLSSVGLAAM
UniProt A5GZW8, sequence (whole entry, looked up): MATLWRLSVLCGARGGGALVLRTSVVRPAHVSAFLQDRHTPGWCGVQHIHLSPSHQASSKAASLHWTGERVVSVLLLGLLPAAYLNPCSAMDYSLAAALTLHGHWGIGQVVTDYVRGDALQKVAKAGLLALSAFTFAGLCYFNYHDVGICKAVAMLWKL
UniProt Q007T0, sequence (whole entry, looked up): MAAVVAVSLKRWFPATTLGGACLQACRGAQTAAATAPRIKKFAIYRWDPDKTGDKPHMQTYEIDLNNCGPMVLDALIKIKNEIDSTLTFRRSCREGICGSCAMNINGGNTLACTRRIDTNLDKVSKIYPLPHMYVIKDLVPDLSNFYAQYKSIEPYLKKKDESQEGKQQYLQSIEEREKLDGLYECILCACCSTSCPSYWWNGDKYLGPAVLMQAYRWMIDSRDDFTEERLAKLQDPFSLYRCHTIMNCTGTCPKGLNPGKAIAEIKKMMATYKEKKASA
UniProt Q14004, sequence (whole entry, looked up): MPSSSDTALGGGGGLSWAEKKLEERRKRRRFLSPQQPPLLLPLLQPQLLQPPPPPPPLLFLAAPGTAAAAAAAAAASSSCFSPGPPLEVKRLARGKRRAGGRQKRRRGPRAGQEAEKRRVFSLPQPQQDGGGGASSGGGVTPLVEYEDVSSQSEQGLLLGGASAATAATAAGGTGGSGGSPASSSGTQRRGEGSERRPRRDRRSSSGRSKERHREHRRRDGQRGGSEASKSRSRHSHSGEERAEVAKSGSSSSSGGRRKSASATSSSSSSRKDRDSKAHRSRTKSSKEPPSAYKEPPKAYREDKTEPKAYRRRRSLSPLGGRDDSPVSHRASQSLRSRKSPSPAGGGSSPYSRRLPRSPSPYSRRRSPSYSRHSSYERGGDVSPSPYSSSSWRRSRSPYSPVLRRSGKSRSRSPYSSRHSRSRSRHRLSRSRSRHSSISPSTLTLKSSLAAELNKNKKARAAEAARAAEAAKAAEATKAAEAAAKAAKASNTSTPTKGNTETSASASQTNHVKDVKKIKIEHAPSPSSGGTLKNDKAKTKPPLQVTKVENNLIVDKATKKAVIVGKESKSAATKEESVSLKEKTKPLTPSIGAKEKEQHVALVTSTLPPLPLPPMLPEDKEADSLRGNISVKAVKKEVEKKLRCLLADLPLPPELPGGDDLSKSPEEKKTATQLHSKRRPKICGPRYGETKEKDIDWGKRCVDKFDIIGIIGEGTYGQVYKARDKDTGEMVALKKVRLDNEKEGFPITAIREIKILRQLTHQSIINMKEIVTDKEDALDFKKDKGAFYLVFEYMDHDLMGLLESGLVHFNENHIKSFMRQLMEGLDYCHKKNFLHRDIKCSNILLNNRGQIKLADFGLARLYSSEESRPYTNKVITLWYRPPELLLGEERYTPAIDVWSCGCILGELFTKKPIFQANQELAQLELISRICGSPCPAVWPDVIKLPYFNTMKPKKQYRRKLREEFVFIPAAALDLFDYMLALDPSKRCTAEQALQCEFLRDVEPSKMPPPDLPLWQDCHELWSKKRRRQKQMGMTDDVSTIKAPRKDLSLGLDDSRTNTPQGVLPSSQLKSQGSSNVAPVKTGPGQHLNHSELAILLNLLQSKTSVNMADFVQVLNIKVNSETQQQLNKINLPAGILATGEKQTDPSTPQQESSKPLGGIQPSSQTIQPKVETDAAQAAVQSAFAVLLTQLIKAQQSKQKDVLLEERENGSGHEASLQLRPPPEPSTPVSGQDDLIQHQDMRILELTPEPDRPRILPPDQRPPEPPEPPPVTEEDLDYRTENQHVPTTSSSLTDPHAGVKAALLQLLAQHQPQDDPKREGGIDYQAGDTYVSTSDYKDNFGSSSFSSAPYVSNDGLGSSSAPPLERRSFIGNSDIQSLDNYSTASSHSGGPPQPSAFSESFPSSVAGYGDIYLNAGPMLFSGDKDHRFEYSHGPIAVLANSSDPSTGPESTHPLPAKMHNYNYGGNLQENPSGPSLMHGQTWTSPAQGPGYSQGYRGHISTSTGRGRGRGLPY
UniProt Q9UM07, sequence (whole entry, looked up): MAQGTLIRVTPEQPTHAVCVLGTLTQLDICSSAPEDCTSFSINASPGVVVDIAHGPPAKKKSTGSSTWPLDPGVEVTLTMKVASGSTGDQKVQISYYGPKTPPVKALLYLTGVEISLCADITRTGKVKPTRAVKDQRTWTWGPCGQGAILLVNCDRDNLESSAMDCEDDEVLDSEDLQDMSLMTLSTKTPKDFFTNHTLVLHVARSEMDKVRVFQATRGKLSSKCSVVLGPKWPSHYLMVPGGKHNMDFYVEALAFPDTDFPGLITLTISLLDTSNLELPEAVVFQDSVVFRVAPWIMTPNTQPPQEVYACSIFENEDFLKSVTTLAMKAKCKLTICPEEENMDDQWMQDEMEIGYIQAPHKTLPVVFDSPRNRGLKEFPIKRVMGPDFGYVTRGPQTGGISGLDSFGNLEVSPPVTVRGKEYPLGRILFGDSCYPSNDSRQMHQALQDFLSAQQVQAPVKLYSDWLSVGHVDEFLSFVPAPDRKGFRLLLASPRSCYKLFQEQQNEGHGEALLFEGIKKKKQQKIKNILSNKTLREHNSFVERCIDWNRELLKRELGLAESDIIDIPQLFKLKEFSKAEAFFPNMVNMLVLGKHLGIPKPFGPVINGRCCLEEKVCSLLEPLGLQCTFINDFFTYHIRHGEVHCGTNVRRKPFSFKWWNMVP
UniProt P21554, sequence (whole entry, looked up): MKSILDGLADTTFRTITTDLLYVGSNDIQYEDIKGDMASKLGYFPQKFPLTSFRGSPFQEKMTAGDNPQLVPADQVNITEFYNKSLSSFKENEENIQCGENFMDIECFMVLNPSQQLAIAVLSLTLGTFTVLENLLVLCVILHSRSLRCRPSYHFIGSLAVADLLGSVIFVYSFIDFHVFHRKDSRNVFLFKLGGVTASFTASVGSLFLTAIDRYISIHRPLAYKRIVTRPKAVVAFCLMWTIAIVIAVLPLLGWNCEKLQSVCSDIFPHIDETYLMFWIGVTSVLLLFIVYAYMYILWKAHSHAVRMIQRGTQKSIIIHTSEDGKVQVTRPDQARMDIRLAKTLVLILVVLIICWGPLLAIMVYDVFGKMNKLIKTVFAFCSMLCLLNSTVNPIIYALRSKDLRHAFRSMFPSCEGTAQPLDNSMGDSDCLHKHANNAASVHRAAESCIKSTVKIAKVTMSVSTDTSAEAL
UniProt O43318, sequence (whole entry, looked up): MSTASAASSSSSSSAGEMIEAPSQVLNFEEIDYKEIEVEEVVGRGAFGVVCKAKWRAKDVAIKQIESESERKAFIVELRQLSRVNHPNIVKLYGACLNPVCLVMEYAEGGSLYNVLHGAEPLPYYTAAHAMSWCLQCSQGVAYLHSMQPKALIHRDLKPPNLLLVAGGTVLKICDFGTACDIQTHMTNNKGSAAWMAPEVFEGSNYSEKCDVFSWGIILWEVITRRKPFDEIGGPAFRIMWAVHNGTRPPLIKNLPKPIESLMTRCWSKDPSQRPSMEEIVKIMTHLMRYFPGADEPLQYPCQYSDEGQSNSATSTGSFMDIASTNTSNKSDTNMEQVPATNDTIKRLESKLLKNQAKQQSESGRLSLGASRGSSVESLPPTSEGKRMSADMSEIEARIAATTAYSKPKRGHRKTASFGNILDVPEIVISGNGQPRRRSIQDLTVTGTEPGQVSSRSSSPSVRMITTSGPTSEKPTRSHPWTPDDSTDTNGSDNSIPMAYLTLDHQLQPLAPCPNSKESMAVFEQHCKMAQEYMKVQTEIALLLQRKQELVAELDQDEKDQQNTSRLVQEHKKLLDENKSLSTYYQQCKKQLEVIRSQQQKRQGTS
UniProt P03146, sequence (whole entry, looked up): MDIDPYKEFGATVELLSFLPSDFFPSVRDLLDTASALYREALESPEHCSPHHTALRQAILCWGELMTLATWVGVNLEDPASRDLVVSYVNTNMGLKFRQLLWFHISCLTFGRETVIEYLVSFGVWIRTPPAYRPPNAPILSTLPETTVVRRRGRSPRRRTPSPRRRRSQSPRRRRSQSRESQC
UniProt P03138, sequence (whole entry, looked up): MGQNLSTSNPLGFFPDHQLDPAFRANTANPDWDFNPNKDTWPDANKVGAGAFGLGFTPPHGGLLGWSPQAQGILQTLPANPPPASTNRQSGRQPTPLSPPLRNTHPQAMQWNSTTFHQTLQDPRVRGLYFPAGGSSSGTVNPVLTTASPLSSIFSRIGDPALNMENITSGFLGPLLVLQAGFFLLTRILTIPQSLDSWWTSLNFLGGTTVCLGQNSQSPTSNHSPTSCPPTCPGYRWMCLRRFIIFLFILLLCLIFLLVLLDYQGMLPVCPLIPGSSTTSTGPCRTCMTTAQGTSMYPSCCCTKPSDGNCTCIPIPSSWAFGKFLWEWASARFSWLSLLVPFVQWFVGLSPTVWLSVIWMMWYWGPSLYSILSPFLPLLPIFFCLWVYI
UniProt P47936, sequence (whole entry, looked up): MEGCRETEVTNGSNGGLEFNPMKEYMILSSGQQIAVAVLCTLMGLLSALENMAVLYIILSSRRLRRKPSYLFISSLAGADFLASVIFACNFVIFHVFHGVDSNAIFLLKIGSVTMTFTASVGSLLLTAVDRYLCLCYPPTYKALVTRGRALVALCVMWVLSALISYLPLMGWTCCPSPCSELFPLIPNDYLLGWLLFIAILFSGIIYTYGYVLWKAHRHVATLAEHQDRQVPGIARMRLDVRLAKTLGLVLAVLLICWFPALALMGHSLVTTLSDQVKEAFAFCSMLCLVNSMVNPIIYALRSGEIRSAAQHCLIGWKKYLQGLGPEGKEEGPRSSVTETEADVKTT

| Compound | target or system | assay | system | setting | how to read | quantity | value |
| --- | --- | --- | --- | --- | --- | --- | --- |
| COCC1CCCCN1C(=O)n1cc(C(O)(c2ccccc2)c2ccccc2)nn1 (centres unmarked) | Alpha/beta hydrolase domain-containing protein 17B (Abhd17b, Mus musculus, UniProt Q7M759) | probe labelling, inhibitor, competitive ABPP-SILAC, measured: Fam108b1 | mouse T cells | concentration not given, 4 h, protein level | baseline: treated over DMSO cells, lower = stronger inhibition | SILAC activity ratio | 1.17 |
| O=C1NC2(CC2)COc2ncc(F)cc2[C@H]2COCCN2c2ccn3ncc1c3n2 | – | – | Sprague-Dawley rat, male, blood | oral, 10 mg/kg/day, 4 weeks, end of recovery, subacute toxicity | – | neutrophil percentage | 11.7 ± 2.5% |
| C#CCCCCOc1ccc2c(c1)CCCN2C(=O)CCl | Cytoskeleton-associated protein 4 (Homo sapiens, UniProt Q07065) | mass spectrometry profiling | H460 cell lysate | 100 µM over 10 µM, UniProt Q07065 | baseline: high over low concentration | reactivity ratio | 0.558 |
| CCCNC(=O)[C@H]1O[C@@H]1C(=O)N[C@H](C(=O)N1CCC[C@H]1C(=O)OCC1=C2C(C)=CC(C)=[N+]2[B-](C)(C)n2c(C)cc(C)c21)[C@@H](C)CC | Procathepsin L (CTSL, Homo sapiens, UniProt P07711) | irreversible inhibitor | – | dark | – | kinact/KI | 10 ± 3 M⁻¹ s⁻¹ |
| COC(=O)[C@@H](NC(=O)c1nn(Cc2ccc(F)cc2)c2cc(OCCCCNC(=N)N)ccc12)C(C)(C)C | CNR1 (Homo sapiens, UniProt P21554) | β-arrestin-2 recruitment, agonist, BRET | – | – | – | maximal efficacy | 69% |
| CC(C)[C@H]1NC(=O)C[C@H]2/C=C/CCSSC[C@@H](NC1=O)C(=O)N[C@H](Cc1cccc3ccccc13)C(=O)NCC(=O)O2 | Mitogen-activated protein kinase kinase kinase 7, with TAB1 (MAP3K7, Homo sapiens, UniProt O43318) | – | – | 10 µM | – | inhibition | 9.5% |
| O=C(O)c1ccc(-c2nc(-c3ccccc3Cl)c3sccn23)cc1 | nicotinic acetylcholine receptor alpha2 | radioligand binding | – | 10 µM | baseline: control | specific binding | 96.2% and 97.3% |
| CON(C(=O)c1cn(C)nc1C(F)F)C(C)Cc1c(Cl)cc(Cl)cc1Cl (centres unmarked) | SDHD/SDHC/SDHB (Sus scrofa, UniProt A5GZW8+D0VWV4+Q007T0) | enzyme activity, inhibitor, DCIP reduction | pig | 0.3 µM, with: DCIP 10 µM | – | reaction velocity | 0.00238 µM/s and 0.00258 µM/s and 0.00222 µM/s |
| O=C1NC(=O)c2c1c1cc(F)c[n+]3c1c1c2c2cc(O)ccc2[n]1[Ru-4]312([N]=C=S)[S+]3CC[S+]1CC[S+]2CC3 (centres unmarked) | HIPK3 (Homo sapiens, UniProt Q9H422) | enzyme activity | – | 100 nM, human enzyme, with: 10 µM ATP | baseline: untreated | remaining activity | 63% |
| CC(C)CC(O)(CC(C)C)c1cn(C(=O)N2CCCC2)nn1 | Palmitoyl-protein thioesterase 1 (Ppt1, Mus musculus, UniProt O88531) | probe labelling, inhibitor, measured: Ppt1 | mouse, brain | i.p., 0.8 mg/kg, 4 h, protein level | baseline: treated over vehicle mice, lower = stronger inhibition | activity ratio-of-ratios | 0.92 |
| CN(C)[C@H]1C[C@@]23CC[C@@]4(O2)C(=CC[C@]2(C)[C@@H](c5ccc6ccncc6c5)CC[C@H]24)C=C3[C@@H](O)[C@@H]1O | NEK8 (Homo sapiens, UniProt Q86SG6) | ATP probe labelling, inhibitor, KiNativ profiling | – | 0.1 µM | – | inhibition | 10.4% |
| N[C@H](C(=O)N1CCCC1)C1CCN(c2nccc3c(-c4ncc(Cl)cc4Cl)cccc23)CC1 | PADI4 (Homo sapiens, UniProt Q9UM07) | enzyme activity | – | 3.84 µM, high-affinity site, with: Ca2+ 1.5 mM | – | kcat | 0.35 s⁻¹ and 0.365 s⁻¹ |
| CC[C@H](C)[C@H](NC(=O)[C@H](CC(C)C)NC(=O)[C@@H](NC(=O)[C@@H](NC(=O)[C@H](CCSC)NC(C)=O)[C@@H](C)CC)[C@@H](C)CC)C(=O)N[C@H](C(=O)N[C@@H](CO)C(=O)N[C@@H](Cc1ccccc1)C(=O)N1CCC[C@H]1C(=O)N[C@@H](CCCCN)C(=O)N[C@@H](Cc1c[nH]cn1)C(=O)N[C@@H](CCCCN)C(=O)N[C@@H](CC(=O)O)C(=O)N[C@@H](Cc1c[nH]c2ccccc12)C(=O)N[C@@H](CCCCN)C(=O)N[C@H](C(=O)N[C@H](C(=O)N[C@@H](CC(C)C)C(=O)N[C@H](C(=O)N[C@@H](CCCCN)C(N)=O)C(C)C)[C@@H](C)CC)C(C)C)[C@@H](C)CC | Interferon regulatory factor 5, residues 222-425 (IRF5, Homo sapiens, UniProt Q13568) | thermal shift | – | – | – | melting temperature | 41.53 ± 0.35 °C |
| CCOC(=O)[C@@H]1Cc2c(cc([N+](=O)[O-])cc2[N+](=O)[O-])[C@H](O)[C@]12C(=O)Nc1ccc(Br)cc12 | MAP2K2 (Homo sapiens, UniProt P36507) | binding, competition with immobilised ligand | – | 0.1 µM | – | remaining binding | 47% |
| O=C(CN1CN(c2ccccc2)C2(CCN(C(=O)c3cnc4[nH]ncc4c3)CC2)C1=O)NCC(F)(F)F | CDK13 | inhibitor | – | concentration not given | – | inhibition | < 50% |
| O=C(CCNC(=O)c1ccsc1)Nc1cccc(Oc2ccc(Cl)cc2)c1 | S/C (Hepatitis B virus genotype D subtype ayw, UniProt P03138+P03146) | LHBs-HBc interaction, inhibitor, NanoBRET | transfected HepG2 | 10 µM | direction not given | Z-score | -1.24 |
| CCOC(=O)[C@](CC)(CCCSCCOCCOCCNC(=O)c1ccc(-c2c3ccc(=N)c(S(=O)(=O)O)c-3oc3c(S(=O)(=O)O)c(N)ccc23)c(C(=O)O)c1)NC(=O)c1ccc(C2CC2)c(Cc2ccc(F)cc2)n1 | Cnr2 (Mus musculus, UniProt P47936) | cAMP, agonist | – | – | – | Emax | 80% |
| C[C@H](NCc1ccc(-c2ccc(C(F)(F)F)cc2)cc1)C(N)=O | NMDA receptor phencyclidine site, rat | binding, radioligand binding | biochemical | 1 µM, with: [3H]TCP 4.0 nM | – | inhibition | 3% |
| CS(C)(=O)=Nc1ccc(-c2ccc(-c3nc4cc(O[C@@H]5CO[C@H]6[C@@H]5OC[C@H]6O)[nH]c4cc3F)cc2)cc1 | DCLK3 (Homo sapiens, UniProt Q9C098) | enzyme activity, inhibitor | – | 10 µM | – | inhibition | -11% |
| CCN1CCN(Cc2ccc(C(=O)Nc3ccc(C)c(NCc4cnc5[nH]ccc5c4OC)c3)cc2C(F)(F)F)CC1 | CDK13 | binding, competition with immobilised ligand | – | 1 µM | – | remaining binding | 94% |

A few entries again:
| Compound | target or system | assay | system | setting | how to read | quantity | value |
| --- | --- | --- | --- | --- | --- | --- | --- |
| O=C(CCNC(=O)c1ccsc1)Nc1cccc(Oc2ccc(Cl)cc2)c1 | S/C (Hepatitis B virus genotype D subtype ayw, UniProt P03138+P03146) | LHBs-HBc interaction, inhibitor, NanoBRET | transfected HepG2 | 10 µM | direction not given | Z-score | -1.24 |
| CCOC(=O)[C@](CC)(CCCSCCOCCOCCNC(=O)c1ccc(-c2c3ccc(=N)c(S(=O)(=O)O)c-3oc3c(S(=O)(=O)O)c(N)ccc23)c(C(=O)O)c1)NC(=O)c1ccc(C2CC2)c(Cc2ccc(F)cc2)n1 | Cnr2 (Mus musculus, UniProt P47936) | cAMP, agonist | – | – | – | Emax | 80% |
